Assay results of several laboratories.

For `CN(C)c1cc(CNC2CCCCC2)c(O)c2c1C[C@H]1C[C@H]3[C@H](N(C)C)C(O)=C(C(N)=O)C(=O)[C@@]3(O)C(O)=C1C2=O`, the MIC was 1 µg/mL (Enterococcus faecalis; microbial growth, broth dilution).
`CC(C=CC(O)=C1C(=O)CNC1=O)=CC(C)C1OC2(C)OC(C1C)C(O)C1OC12C` (stereo not shown) gave an MIC of > 100 µM (Enterococcus; vancomycin-resistant).
The MIC of `CN(C)c1cc(CNCc2ccccc2)c(O)c2c1C[C@H]1C[C@H]3[C@H](N(C)C)C(O)=C(C(N)=O)C(=O)[C@@]3(O)C(O)=C1C2=O` is reported as 0.5 µg/mL (Enterococcus faecalis; JH2-2(pMV158), Tet L efflux).
`CC1C=CC=CC(C)C2C=CC3CC(C)(O)C(O[N+](=O)[O-])C(C)C3C2C(=O)C(Cl)(Cl)C(=O)C(C)C(=O)O1` (stereo not shown) gave an MIC of 0.1 µg/mL (Corynebacterium glutamicum; broth microdilution; DSM 20300).
`CCCCCCCCCCCC[S+]([O-])CC1OC(OC2C(N)CC(N)C(OC3OC(CN)C(O)CC3N)C2O)C(O)C(N)C1O` (mixture of isomers) has an MIC of 150 µg/mL (Enterococcus; vancomycin-resistant).
`C[C@@H]1C(=O)O[C@@H](C)/C=C/C=C\[C@@H](C)[C@@H]2C=C[C@@H]3C[C@@]4(C)O[C@H]4[C@@H](C)[C@H]3[C@@H]2C(=O)C(Cl)(Cl)C1=O` gave an MIC of 0.05 µg/mL (Corynebacterium glutamicum; broth microdilution; DSM 20300).
With `CN(C)c1cc(CNC(=O)C(C)(C)C)c(O)c2c1C[C@H]1C[C@H]3[C@H](N(C)C)C(O)=C(C(N)=O)C(=O)[C@@]3(O)C(O)=C1C2=O` the MIC was 2 µg/mL (Enterococcus faecalis; JH2-2(pMV158), Tet L efflux).
The MIC of `COC1C=COC2(C)Oc3c(C)c(O)c4c(c3C2=O)C2=NC3(CCN(CC(C)C)CC3)NC2=C(NC(=O)C(C)=CC=CC(C)C(O)C(C)C(O)C(C)C(OC(=O)Nc2cscn2)C1C)C4=O` (stereo not shown) is reported as 0.026 µM (Mycobacteroides abscessus; microbial growth; ATCC19977).
The MIC of `CC1C=CC=CC(C)C2C=CC3CC(C)(O)C(O)C(C)C3C2C(=O)C(Cl)(Cl)C(=O)C(C)C(=O)O1` (stereo not shown) is reported as > 6.4 µg/mL (Corynebacterium glutamicum; broth microdilution; DSM 20300).
For `CC(C)c1ccc(Cn2ccc([C@H](C)[C@](O)(Cn3cnnn3)c3ccc(F)cc3F)n2)cc1`, the MIC was < 0.008 µg/mL (Nakaseomyces glabratus; CLSI broth microdilution; 537).
`C=CCNCc1cc(N(C)C)c2c(c1O)C(=O)C1=C(O)[C@]3(O)C(=O)C(C(N)=O)=C(O)[C@@H](N(C)C)[C@@H]3C[C@@H]1C2` has an MIC of 2 µg/mL (Enterococcus faecalis; microbial growth, broth dilution).
`N#Cc1ccc2cccc(O)c2n1` has an MIC of ≥ 1500 µM (all tested microorganisms; agar dilution).
For `CCCCCCCCCCCCCCCCCCSCC1OC(OC2C(N)CC(N)C(OC3OC(CN)C(O)CC3N)C2O)C(O)C(N)C1O` (stereo not shown), the MIC was > 150 µg/mL (Enterococcus; vancomycin-resistant).
For `O=C(CCC(=O)[c-]1cccc1)NCCN(CC(=O)Nc1ccc(I)cc1)C(=O)CCc1cn(C[c-]2cccc2)nn1.[C-]#[O+].[C-]#[O+].[C-]#[O+].[Fe+2].[Mn+].c1cc[cH-]c1`, the MIC was > 512 µg/mL (Bacillus subtilis, Staphylococcus aureus; incl. MRSA).
With `COC1CCN(Cc2cc(N(C)C)c3c(c2O)C(=O)C2=C(O)[C@]4(O)C(=O)C(C(N)=O)=C(O)[C@@H](N(C)C)[C@@H]4C[C@@H]2C3)CC1` the MIC was 1 µg/mL (Enterococcus faecalis; microbial growth, broth dilution).
`CC(/C=C/C(O)=C1/C(=O)CNC1=O)=C\[C@@H](C)[C@H]1O[C@@]2(C)O[C@H](C[C@@H]3O[C@@]32C)[C@@H]1C` gave an MIC of > 100 µM (Enterococcus; vancomycin-resistant).
The MIC of `Oc1c(Br)cc(Br)c2nc3cc(SC(F)(F)F)ccc3nc12` is reported as 0.39 µM (Enterococcus; broth microdilution; VRE 700221).
For `CC1C=CC=CC(C)C2C=CC3CC(C)(O)C(OCc4ccccc4)C(C)C3C2C(=O)C(Cl)(Cl)C(=O)C(C)C(=O)O1` (stereo not shown), the MIC was 3.2 µg/mL (Corynebacterium glutamicum; broth microdilution; DSM 20300).
For `CN(Cc1cc(N(C)C)c2c(c1O)C(=O)C1=C(O)[C@]3(O)C(=O)C(C(N)=O)=C(O)[C@@H](N(C)C)[C@@H]3C[C@@H]1C2)CC(C)(C)C`, the MIC was 0.5 µg/mL (Enterococcus faecalis; microbial growth, broth dilution).
For `CCCCOC1C(C)C2C(C=CC3C(C)C=CC=CC(C)OC(=O)C(C)C(=O)C(Cl)(Cl)C(=O)C32)CC1(C)O` (stereo not shown), the MIC was > 3.2 µg/mL (Corynebacterium glutamicum; broth microdilution; DSM 20300).
With `Oc1c(Br)cc(Br)c2nc3c(C(F)(F)F)cc(C(F)(F)F)cc3nc12` the MIC was 0.05 µM (Enterococcus; broth microdilution; VRE 700221).
The MIC of `CC(C)CCOC1C(C)C2C(C=CC3C(C)C=CC=CC(C)OC(=O)C(C)C(=O)C(Cl)(Cl)C(=O)C32)CC1(C)O` (stereo not shown) is reported as 3.2 µg/mL (Corynebacterium glutamicum; broth microdilution; DSM 20300).
The MIC of `COc1ccc(-c2c(O)oc3c(CC=C(C)C)c(O)cc(O)c3c2=O)cc1` is reported as > 500 µg/mL (Nakaseomyces glabratus; broth microdilution; clinical isolate; 48 h, 37 °C).
`CN(C)c1cc(CNC2CCCC2)c(O)c2c1C[C@H]1C[C@H]3[C@H](N(C)C)C(O)=C(C(N)=O)C(=O)[C@@]3(O)C(O)=C1C2=O` gave an MIC of 1 µg/mL (Enterococcus faecalis; microbial growth, broth dilution).
With `CCOC1C(C)C2C(C=CC3C(C)C=CC=CC(C)OC(=O)C(C)C(=O)C(Cl)(Cl)C(=O)C32)CC1(C)O` (stereo not shown) the MIC was > 6.4 µg/mL (Corynebacterium glutamicum; broth microdilution; DSM 20300).
